Published values collected from several papers.
Parts stem from different laboratories: compare values within a part only.
Sequence of UniProt P42684 (whole entry, looked up): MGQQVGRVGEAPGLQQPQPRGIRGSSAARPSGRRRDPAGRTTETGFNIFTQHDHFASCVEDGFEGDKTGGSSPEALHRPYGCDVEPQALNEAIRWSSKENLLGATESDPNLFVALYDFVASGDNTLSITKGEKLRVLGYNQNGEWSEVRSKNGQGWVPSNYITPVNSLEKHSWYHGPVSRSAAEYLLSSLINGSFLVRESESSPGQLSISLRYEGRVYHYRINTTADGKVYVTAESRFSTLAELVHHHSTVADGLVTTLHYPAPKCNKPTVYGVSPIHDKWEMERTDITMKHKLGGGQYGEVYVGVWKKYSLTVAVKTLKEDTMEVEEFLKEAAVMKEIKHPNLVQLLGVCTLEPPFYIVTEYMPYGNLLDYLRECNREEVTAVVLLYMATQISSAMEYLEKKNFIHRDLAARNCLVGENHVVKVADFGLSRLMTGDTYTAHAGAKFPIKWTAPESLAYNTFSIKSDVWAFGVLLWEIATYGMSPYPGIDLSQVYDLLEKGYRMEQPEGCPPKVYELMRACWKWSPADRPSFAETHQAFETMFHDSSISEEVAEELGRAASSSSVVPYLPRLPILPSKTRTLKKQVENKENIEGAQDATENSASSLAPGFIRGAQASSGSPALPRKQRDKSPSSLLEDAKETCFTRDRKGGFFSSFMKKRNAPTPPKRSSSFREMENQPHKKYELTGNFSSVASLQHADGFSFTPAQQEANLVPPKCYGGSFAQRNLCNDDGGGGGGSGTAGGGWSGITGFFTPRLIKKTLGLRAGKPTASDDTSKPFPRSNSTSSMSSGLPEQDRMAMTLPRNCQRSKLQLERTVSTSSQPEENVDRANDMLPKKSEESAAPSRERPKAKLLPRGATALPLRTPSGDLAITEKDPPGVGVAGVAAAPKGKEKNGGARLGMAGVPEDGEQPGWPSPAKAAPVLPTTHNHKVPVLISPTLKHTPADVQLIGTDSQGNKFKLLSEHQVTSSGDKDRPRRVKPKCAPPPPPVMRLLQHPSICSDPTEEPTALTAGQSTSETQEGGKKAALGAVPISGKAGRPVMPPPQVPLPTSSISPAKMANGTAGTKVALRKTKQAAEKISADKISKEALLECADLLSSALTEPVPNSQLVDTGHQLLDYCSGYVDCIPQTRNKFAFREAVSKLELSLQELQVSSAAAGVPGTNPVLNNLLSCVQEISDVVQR
Sequence of UniProt P22607 (whole entry, looked up): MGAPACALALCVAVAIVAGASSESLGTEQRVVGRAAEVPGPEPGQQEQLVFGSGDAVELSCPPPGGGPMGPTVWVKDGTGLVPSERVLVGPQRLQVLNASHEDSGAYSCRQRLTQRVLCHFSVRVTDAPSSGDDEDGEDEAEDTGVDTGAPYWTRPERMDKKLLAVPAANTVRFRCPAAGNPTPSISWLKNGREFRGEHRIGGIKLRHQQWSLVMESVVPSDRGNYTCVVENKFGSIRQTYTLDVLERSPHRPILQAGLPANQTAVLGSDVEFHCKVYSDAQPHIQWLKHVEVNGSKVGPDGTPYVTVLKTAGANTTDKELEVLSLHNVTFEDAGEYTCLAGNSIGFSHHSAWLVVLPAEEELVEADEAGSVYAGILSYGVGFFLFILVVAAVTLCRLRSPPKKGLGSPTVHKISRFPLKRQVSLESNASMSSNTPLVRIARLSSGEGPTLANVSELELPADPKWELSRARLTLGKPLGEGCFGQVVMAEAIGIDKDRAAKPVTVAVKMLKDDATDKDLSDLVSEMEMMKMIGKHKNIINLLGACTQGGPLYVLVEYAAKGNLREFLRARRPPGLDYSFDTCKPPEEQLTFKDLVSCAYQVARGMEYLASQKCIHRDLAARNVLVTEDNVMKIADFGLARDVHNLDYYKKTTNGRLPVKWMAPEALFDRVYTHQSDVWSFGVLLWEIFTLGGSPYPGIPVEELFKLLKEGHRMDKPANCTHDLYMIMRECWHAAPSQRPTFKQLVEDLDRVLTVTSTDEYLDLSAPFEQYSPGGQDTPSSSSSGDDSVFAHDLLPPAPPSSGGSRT
Sequence of UniProt P00519 (whole entry, unmodified, looked up): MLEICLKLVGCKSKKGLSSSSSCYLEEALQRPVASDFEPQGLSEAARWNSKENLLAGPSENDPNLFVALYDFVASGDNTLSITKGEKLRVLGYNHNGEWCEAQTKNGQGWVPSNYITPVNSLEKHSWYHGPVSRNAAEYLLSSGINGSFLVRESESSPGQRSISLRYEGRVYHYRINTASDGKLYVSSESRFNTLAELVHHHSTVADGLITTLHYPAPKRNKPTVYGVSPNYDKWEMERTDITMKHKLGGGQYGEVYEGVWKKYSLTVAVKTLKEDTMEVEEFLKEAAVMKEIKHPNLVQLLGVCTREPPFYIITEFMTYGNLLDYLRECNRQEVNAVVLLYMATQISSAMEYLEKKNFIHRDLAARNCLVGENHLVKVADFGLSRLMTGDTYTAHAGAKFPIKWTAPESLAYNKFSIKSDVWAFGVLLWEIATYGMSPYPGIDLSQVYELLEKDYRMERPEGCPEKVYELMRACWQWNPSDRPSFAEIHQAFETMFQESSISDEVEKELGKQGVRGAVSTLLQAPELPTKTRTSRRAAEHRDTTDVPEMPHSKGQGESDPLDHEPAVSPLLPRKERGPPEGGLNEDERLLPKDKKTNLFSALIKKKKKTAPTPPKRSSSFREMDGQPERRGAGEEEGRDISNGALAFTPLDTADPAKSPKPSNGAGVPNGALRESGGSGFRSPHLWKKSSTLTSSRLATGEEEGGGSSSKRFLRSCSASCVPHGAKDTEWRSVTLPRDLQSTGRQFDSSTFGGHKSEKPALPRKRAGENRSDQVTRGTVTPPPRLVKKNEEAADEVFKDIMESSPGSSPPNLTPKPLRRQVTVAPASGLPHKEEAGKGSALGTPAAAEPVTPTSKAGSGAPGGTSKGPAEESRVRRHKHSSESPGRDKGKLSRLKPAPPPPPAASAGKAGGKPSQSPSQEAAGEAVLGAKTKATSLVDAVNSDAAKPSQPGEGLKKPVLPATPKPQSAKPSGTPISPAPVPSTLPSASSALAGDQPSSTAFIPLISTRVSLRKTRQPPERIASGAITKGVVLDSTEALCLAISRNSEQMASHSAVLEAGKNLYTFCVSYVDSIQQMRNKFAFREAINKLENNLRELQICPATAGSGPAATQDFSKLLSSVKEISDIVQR
Sequence of UniProt P36896 (whole entry, looked up): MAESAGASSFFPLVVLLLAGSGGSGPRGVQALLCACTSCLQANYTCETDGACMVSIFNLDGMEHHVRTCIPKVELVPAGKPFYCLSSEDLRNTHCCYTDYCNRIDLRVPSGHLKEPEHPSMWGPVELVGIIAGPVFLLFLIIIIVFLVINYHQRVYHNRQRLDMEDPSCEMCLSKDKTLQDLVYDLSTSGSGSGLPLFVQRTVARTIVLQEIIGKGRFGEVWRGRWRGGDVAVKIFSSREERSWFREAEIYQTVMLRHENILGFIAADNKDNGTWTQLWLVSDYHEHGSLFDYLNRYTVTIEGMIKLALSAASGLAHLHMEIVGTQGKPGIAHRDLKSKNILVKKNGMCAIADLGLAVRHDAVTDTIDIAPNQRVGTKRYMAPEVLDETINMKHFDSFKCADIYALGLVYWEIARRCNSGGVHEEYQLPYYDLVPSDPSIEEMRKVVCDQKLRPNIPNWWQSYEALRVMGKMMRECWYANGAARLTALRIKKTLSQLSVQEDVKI
Sequence of UniProt P30291 (whole entry, looked up): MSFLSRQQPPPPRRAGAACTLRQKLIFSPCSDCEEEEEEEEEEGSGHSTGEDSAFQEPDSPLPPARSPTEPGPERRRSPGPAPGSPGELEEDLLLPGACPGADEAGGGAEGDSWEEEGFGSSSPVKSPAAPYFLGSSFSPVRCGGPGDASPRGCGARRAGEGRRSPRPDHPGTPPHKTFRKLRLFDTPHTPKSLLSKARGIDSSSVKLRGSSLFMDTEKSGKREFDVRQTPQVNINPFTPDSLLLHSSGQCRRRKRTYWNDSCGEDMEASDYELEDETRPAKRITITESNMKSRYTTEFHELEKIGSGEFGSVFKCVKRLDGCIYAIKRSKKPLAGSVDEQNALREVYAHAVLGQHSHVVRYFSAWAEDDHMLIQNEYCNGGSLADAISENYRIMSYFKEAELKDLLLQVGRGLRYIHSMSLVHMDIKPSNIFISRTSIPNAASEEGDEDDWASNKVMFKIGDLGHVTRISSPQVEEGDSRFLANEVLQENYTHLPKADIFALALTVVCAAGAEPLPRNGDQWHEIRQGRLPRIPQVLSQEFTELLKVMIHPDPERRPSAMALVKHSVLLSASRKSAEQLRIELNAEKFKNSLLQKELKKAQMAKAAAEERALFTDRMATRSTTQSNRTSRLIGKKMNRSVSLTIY
Sequence of UniProt P49137 (whole entry, looked up): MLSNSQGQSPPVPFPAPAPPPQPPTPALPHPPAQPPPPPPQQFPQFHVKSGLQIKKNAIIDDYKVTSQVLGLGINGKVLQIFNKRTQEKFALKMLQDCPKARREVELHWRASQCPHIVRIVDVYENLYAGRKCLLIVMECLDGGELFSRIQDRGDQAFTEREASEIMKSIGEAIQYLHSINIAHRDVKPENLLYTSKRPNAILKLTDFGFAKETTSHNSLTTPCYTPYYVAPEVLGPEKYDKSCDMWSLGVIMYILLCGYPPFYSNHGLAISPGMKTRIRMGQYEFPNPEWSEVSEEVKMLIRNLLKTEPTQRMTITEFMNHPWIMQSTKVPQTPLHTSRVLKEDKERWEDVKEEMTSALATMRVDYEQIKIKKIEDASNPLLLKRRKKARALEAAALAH

Series 1
SMILES: CS(=O)(=O)c1cc(C2(NC(=O)c3cncc4c3cnn4-c3ccc(F)cc3)CC2)ccn1
Technique: competition with immobilised ligand
Tested at: 1 µM
target | observed | remaining binding
Tyrosine-protein kinase ABL1, phosphorylated (ABL1, Homo sapiens, UniProt P00519, E255K) | binding | 100%
Ribosomal protein S6 kinase alpha-2, N-terminal kinase domain (RPS6KA2, Homo sapiens, UniProt Q15349) | cell-free assay | 100%
CDK11A (Homo sapiens, UniProt Q9UQ88) | cell-free assay | 99%

Series 2
Compound: O=C(O)/C=C/c1cc(Br)c(Br)c(Br)c1Br
Observed: enzyme activity
Mode: inhibitor
Tested at: 0.5 µM
Reference: control
target | remaining activity [%]
CSNK1G2 (Homo sapiens, UniProt P78368) | 90.1
FRK (Homo sapiens, UniProt P42685) | 102
FGFR3 (Homo sapiens, UniProt P22607) | 94.9
MST1R (Homo sapiens, UniProt Q04912) | 87.1
ACVR1B (Homo sapiens, UniProt P36896) | 103
EPHA3 (Homo sapiens, UniProt P29320) | 92.3
WEE1 (Homo sapiens, UniProt P30291) | 99.1
ULK2 (Homo sapiens, UniProt Q8IYT8) | 80.3
ABL2 (Homo sapiens, UniProt P42684) | 88.7
JAK3 (Homo sapiens, UniProt P52333) | 71.8
MAPKAPK2 (Homo sapiens, UniProt P49137) | 91.5
NEK1 (Homo sapiens, UniProt Q96PY6) | 85.4
FGFR1 (Homo sapiens, UniProt P11362) | 95.2

Series 3
Target: Eukaryotic initiation factor 4A-I (EIF4A1, Homo sapiens, UniProt P60842, residues 1-406, full length assumed)
Sequence of UniProt P60842 (whole entry, looked up): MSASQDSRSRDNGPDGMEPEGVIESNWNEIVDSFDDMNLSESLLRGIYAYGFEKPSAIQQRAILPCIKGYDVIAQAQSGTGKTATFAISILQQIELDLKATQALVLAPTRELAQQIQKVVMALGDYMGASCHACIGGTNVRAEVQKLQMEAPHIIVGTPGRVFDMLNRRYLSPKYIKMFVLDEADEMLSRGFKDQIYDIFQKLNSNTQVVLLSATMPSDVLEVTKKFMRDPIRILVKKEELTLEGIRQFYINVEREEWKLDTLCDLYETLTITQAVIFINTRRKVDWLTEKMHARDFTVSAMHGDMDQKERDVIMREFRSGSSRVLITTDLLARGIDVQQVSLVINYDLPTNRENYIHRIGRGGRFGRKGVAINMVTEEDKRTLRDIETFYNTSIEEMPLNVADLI
Technique: RNA Bind-n-Seq
Molecule type: RNA
Medium: in vitro
Tested at: 90 pmol
Notes: 4-mer, random 30-nt RNA, single round
Added: 3 µM iPr-DMDA-PatA, 2 mM ADP, 2 mM phosphate
Reference: input library
Direction: higher = stronger binding
Strand | 4-mer enrichment [fold]
UUAG | 1.09
GUUU | 1.01
CUGU | 0.867
CACU | 0.984
GUCG | 0.833
UUGU | 0.977
GCAG | 0.789
UCAU | 1.05

Series 4
Target: RNA binding protein fox-1 homolog 2, RRM domain, GST-SBP tag (RBFOX2, Homo sapiens, UniProt O43251-10, residues 100-194)
Technique: RNA Bind-n-Seq
Molecule type: RNA
Medium: in vitro
Tested at: 365 nM
Notes: natural RNA segment, single round, ends assumed
Reference: no-protein control
Direction: higher = stronger binding
Shared flanks, not repeated: GGGAGUUCUACAGUCCGACGAUC … UGGAAUUCUCGGGUGCCAA
Construct (chain): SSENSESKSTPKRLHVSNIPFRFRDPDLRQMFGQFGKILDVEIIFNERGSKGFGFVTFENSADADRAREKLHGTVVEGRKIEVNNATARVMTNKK
Strand | RBNS enrichment (R)
UGUCCACCAGUGAUCUCAAGCAUGGCUUAGGGCUGGCAGGGACCUGAGCCCUCAUUUCACAAUGUGAUUCAGGCUACAGGUUUUUUUGGGGGGACAAAUCUUGUUUCUCU | 0.395
AAUCUAUAUUAUUCAUAUUGAAUGUAUUAACAGAUAAUGGUGCAAAAGCAUUCUUCCCAGGGGAAGAGUGUAUCAUGCAUAACUGCAAUUUAAGUCCUUCCUUUGAUAAU | 0.235
GACCCAUGCUGGUGGAGAACAGACGUCAAUCAUUCCCGUCCAUCAGGUUAUUGAUAAGGUCAAGGGUUACUGUAAUGCCCAUUCCGAUAACUUCUAUAAAAAUAUCAUCC | 0.365
CGUGGCAGACAGCAGGUGCCUGGCGGUGACCCACGGGGCUCCUGGCUUGCAGCUGGUGAUGGUCAAGAACUGACUACAAAACAGGAAUGGAUAGACUCUAUUUCCUUCCA | 0.271
UUUCUCUCUCCUGAACCCUACUCUCUCCUUUUUGCUUCCUCAGUUUUUAUCAGGCUUUCUCUGGGGGACAGCAGUCUCUGAGCACCAGGGAGCAGUUGCCCUCAGGCCUG | 0.395
UGAAGGGGAUACGCUGGAGUUGCCCUGCCAUCGCCUCCAUCAGCCAGACGAGGUCCUCACAGGAGAAGGACAGCUCUUCCCCACCCUGGGAUCUCAGGAGGGCAGCCACG | 0.404
GUAUAUCAUACAUGAUCUUAAAGCCAAAGAUGCCAUGAAAAUACUGCAGUAUGGCUGUGAUUUCUGCUUCUCCAUGUAGGGGAGCAUGGGACAUCCACUGCCACGCCAAA | 0.26
UCCCUGUCCUGUAAAUAUCCCUCCCCUCUCCAGUCCACCCUCAUCUCCCACCAAGAUCAGCCACCUCAGGCAUGGGGAGUAAUGAGACCAGAGCGCCUCUCUGGCACCAC | 1.06

Repeated from above (series 3):
Strand | 4-mer enrichment [fold]
CUGU | 0.867
CACU | 0.984
GUCG | 0.833
UUGU | 0.977
GCAG | 0.789
